Published values pooled from the literature.
Compare with care: the assays were run in different laboratories. Numbers after ± are the reported error.
APP Aβ42 aggregates: Amyloid-beta precursor protein, Aβ42 aggregates (APP, Homo sapiens, UniProt P05067)
UniProt P05067, sequence (whole entry, looked up): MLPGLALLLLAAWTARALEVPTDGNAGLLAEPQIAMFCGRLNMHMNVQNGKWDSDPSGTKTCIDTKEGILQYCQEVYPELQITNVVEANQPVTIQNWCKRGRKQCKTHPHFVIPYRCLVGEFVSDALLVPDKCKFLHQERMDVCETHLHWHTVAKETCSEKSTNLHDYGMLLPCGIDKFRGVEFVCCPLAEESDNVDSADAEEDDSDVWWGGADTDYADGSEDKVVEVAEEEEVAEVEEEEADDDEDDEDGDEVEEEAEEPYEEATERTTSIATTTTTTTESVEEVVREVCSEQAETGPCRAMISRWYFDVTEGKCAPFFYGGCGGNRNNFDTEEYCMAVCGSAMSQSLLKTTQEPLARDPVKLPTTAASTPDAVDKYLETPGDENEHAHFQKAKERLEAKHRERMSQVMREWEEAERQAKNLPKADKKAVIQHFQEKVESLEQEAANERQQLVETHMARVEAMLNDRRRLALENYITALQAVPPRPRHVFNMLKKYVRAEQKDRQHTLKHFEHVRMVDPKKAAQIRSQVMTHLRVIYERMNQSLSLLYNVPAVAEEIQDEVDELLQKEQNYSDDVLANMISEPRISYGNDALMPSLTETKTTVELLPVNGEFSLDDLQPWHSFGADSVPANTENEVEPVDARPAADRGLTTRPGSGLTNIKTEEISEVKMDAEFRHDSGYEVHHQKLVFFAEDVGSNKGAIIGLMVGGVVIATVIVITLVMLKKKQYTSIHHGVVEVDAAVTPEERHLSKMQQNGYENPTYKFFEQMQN
APP: Amyloid-beta precursor protein (APP, Homo sapiens, UniProt P05067)
APP Aβ40 fibrils: Amyloid-beta precursor protein, Aβ40 fibrils (APP, Homo sapiens, UniProt P05067)

For `COCCOCCOCCOC(=O)C(C#N)=Cc1ccc(C=Cc2ccc(N(C)C)cc2)cc1`, the fluorescence intensity was 2.3 fold (APP Aβ42 aggregates; binding, fluorescence spectroscopy; PBS; 4 µM, added: pre-aggregated Aβ(1-42) 5 µM; relative to: probe without Aβ).
`O=C(C=Cc1ccc(O)c(OC(F)(F)F)c1)C(CCOCCOCCOCCO)C(=O)C=Cc1ccc(O)c(OC(F)(F)F)c1` (stereo not drawn) has a band density of 652 ± 112% (APP; Aβ aggregation, SDS-PAGE western blot, measured: Aβ1-42 75-200 kDa band; 30 µM, 24 h, 37 °C, added: Aβ1-42 10 µM; relative to: DMSO).
`CC[C@H](C)[C@H](NC(=O)[C@@H](NC(=O)C(C)(C)N)C(C)C)C(=O)N[C@@H](C)C(N)=O` gave an inhibition of 64.5% (APP; amyloid aggregation, inhibitor, fluorescence; 2 µM, 24 h).
For `CC(C)C[C@@H]1NC(=O)CN(C)C(=O)CCCC(=O)NCCCC[C@@H](C(=O)N[C@@H](CCCNC(=N)N)C(N)=O)NC(=O)[C@H](Cc2ccccc2)NC(=O)[C@H](Cc2ccccc2)NC(=O)[C@H](C(C)C)NC1=O`, “amyloid fibril disruption” read 70.3% (APP Aβ40 fibrils; ThT fluorescence; 2-fold molar excess, pH 7.4, 37 °C, added: preformed Aβ1-40 fibrils 40 µM).
For `COCCOCCOCCOCCOC(=O)/C(C#N)=C/c1ccc2cc(N3CCCCC3)ccc2c1`, the emission maximum was 590 nm (APP Aβ42 aggregates; fluorescence; free probe, 5% DMSO in water).
The inhibition of `CC[C@H](C)[C@H](NC(=O)[C@H](Cc1ccccc1)NC(=O)[C@@H](N)C(C)C)C(=O)N[C@@H](C)C(N)=O` is reported as 100% (APP; amyloid aggregation, inhibitor, fluorescence; 2 µM, 24 h).
`COCCOCCOCCOC(=O)/C(C#N)=C/c1ccc2cc(NCCN3CCOCC3)ccc2c1` gave an excitation maximum of 430 nm (APP Aβ42 aggregates; fluorescence; free probe, 5% DMSO in water).
Under “effect size of DVR”, `[11CH3]Nc1ccc(-c2nc3ccc(O)cc3o2)cn1` is recorded as 3.35 (APP; binding, PET; Alzheimer's disease patients, white matter; unit not given; relative to: control subjects).
The excitation maximum of `CCN(CC)c1ccc(C=C(C#N)C(=O)OCCOCCOCCOC)cc1` is reported as 442 nm (APP Aβ42 aggregates; binding, fluorescence spectroscopy; PBS; 4 µM, added: pre-aggregated Aβ(1-42) 5 µM).
`CC(=O)N[C@@H](CC(C)C)C(=O)Nc1ccccc1C(=O)N[C@@H](Cc1ccccc1)C(=O)N[C@@H](Cc1ccccc1)C(=O)N[C@@H](CCCCN)C(N)=O`: “amyloid fibril disruption” 34% (APP Aβ40 fibrils; ThT fluorescence; 2-fold molar excess, pH 7.4, 37 °C, added: preformed Aβ1-40 fibrils 40 µM).
For `CC[C@H](C)[C@H](NC(=O)[C@@H](NC(=O)[C@@H](N)C(C)C)C(C)C)C(=O)N[C@@H](C)C(N)=O`, the inhibition was 52.7% (APP; amyloid aggregation, inhibitor, fluorescence; 4 µM, 24 h).
With `COCCOCCOCCOC(=O)C(C#N)=Cc1ccc2cc(N3CCCCC3)ccc2c1` the fluorescence intensity was 9.3 fold (APP Aβ42 aggregates; binding, fluorescence spectroscopy; PBS; 4 µM, added: pre-aggregated Aβ(1-42) 5 µM; relative to: probe without Aβ).

For quick reference, copied from above:
Under “effect size of DVR”, `[11CH3]Nc1ccc(-c2nc3ccc(O)cc3o2)cn1` is recorded as 3.35 (APP; binding, PET; Alzheimer's disease patients, white matter; unit not given; relative to: control subjects).
